# Measurements from different studies.
# Each numbered part is a random draw from the data of one study; scales do not carry over between parts.

# Study 1
# Target: RNA binding protein fox-1 homolog 2, RRM domain, GST-SBP tag (RBFOX2, Homo sapiens, UniProt O43251-10, residues 100-194)
# Method: RNA Bind-n-Seq
# Molecule type: RNA
# Medium: in vitro
# Tested at: 365 nM
# Setting: natural RNA segment, single round, ends assumed
# Relative to: no-protein control
# Reading: higher = stronger binding
# Constant ends, left off below: GGGAGUUCUACAGUCCGACGAUC … UGGAAUUCUCGGGUGCCAA
# Construct (chain): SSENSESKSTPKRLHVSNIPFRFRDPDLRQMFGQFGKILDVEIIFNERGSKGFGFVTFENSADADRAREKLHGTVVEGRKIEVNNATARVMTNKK
Oligonucleotide,RBNS enrichment (R)
GAAGCAGUGAGCCGCAUCUUCUCCAUCUGGCAGGGUGGGAUGGAGGAGAAGAAUUUUCAGACCCCAGCGGCUGAGUCAUGAUCUCCCUGCCGCCUCAAUGUGGUUGCAAG,0.737
UUUCAUAGAACACAACACUUGAGCAGAUGCAUCCAAGGAGGCGAGCAAAUGAAAAGGAAUCUAUUUAUGGAAUAAACUCGAAACCUAAAUUUCAGUAUUUUAGUAAUAUG,0.273
UUGCAACACAUUCAUUUGGAUAAGUUGUGAUUUGACGACUGAUUUAAAUAAAAUAUUUGCUUCACUUAGAUUUGCUGGUUUUAUUAGAUACCAGGAAGCCUGGGACAUAU,0.281
UGGCUGGACCAUGUAUGAUGAUGAAAGCCUGUGUCUUUGAGGGAUUCUACCCUGAACAUACCUCACAGAUCCUCCCUGUCAUGCCACAUUUCACUGAUUGGAAUGUGGAA,0.317
UUAAAUCAGUACAGUACCUGUACCUGCACGGUCACCCGCUCCGUGUGUCGCCCUAUAUUGAGGGCUCAAGCUUUCCCUUGUUUUUUGAAAGGGGUUUAUGUAUAAAUAUA,0.63
UAAUCUUCACACUUAACCUUAGACACCUAUGCAGUCAUGUUGGGAGCAGGUUACAAUGUUACUUCAGCCCACAGUUUAUUUCUAUACUUGAGUUCUUAAGUACAGAAGAU,0.271
UUUCUGACGGGACGACACAUCUGGGAAGACAGCGGCGAGUUUUCUGAAGAGAUGAGUGCUCAGAGCCCUCAUGCUGUUGAGGCUAAAGGGAGGCCUGGAACGGUGGGGCG,0.574
CUCGCGGAGCUUGAGUUCUUCAUGGUAGAAAACAGUUGCAUUUCCGUAAAGGGUGGAGGGCUUGAGGCUUAAAUAUAUGAGUAUGUUUAUACUGCUCUACUGCACUUAGA,0.742

# Study 2
# Target: Sal-like protein 4, full length isoform A (SALL4, Homo sapiens, UniProt Q9UJQ4, residues 1-1053)
# Sequence of UniProt Q9UJQ4 (whole entry, looked up): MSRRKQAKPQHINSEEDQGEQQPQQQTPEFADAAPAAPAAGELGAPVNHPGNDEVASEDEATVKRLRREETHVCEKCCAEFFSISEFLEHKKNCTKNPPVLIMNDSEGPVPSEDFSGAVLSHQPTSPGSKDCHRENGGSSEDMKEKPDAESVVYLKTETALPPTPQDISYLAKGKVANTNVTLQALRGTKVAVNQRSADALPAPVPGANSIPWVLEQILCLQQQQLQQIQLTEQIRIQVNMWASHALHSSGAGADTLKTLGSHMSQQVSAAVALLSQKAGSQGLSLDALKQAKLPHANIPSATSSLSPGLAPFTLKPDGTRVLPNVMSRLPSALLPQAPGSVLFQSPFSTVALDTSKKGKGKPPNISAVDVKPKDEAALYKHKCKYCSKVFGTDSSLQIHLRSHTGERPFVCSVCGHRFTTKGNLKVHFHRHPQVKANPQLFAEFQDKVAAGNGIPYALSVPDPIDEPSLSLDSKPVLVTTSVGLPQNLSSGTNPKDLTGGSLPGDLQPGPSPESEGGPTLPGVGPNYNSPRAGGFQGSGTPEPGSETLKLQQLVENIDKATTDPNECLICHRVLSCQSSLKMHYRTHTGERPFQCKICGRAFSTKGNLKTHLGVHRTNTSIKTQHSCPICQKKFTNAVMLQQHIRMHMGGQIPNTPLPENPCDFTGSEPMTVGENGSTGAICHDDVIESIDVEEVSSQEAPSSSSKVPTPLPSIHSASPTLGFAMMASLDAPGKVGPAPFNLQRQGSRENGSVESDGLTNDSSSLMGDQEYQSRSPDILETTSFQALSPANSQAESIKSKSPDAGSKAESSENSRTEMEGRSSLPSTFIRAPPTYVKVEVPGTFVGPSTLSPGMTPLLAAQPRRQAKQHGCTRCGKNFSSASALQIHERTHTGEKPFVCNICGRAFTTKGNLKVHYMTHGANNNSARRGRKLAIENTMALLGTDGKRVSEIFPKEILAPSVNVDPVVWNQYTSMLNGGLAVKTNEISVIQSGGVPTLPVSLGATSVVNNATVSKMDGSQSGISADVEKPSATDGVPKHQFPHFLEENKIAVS
# Method: universal PBM
# Molecule type: double-stranded DNA, one strand shown
# Medium: in vitro
# Tested at: 600 nM
# Setting: 8-mer, flanks averaged, mean of replicates
# Reading: higher = stronger binding
Oligonucleotide,E-score
GCAAACAC,-0.0953
CTCGTCTC,-0.15
CGCGGTGA,-0.294
CCCACAGC,-0.187
AGTGGGTG,-0.0552
GATGGAAA,0.0937
ACGGTTGA,-0.0194
TCACCACA,0.0227
CTGCTATA,0.0959
CTGCTCGC,-0.201
ATTATCCC,0.208
ATCTACAG,0.134
AGAGCGTC,-0.185
AACAGGCT,0.0338
CGCCAGCC,-0.257
ACTTCGGG,-0.16
GGAGAAAC,-0.0988
AGGGGCTC,-0.345
ACACAATA,0.269
GGTACACC,-0.274
ACCTGAAT,0.208

# Study 3
# Target: RING finger protein unkempt homolog, zinc fingers 1-6, GST-SBP tag (UNK, Homo sapiens, UniProt Q9C0B0, residues 30-357)
# Sequence of UniProt Q9C0B0 (30-357, looked up): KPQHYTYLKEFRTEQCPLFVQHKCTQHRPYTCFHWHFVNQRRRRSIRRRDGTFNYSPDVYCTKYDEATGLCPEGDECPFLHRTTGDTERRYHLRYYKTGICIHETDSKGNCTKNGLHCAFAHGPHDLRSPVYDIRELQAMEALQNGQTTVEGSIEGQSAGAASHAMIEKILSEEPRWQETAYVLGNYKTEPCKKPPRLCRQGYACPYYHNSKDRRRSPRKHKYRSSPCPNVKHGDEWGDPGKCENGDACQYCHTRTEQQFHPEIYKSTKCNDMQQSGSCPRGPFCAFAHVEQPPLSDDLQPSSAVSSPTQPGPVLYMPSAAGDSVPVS
# Method: RNA Bind-n-Seq
# Molecule type: RNA
# Medium: in vitro
# Tested at: not given
# Setting: RNA with constant flanks, human-mouse chimeric sites, ends assumed
# Relative to: input RNA pool
# Reading: higher = stronger binding
# Constant ends, left off below: GGGAGUUCUACAGUCCGACGAUC … CAACAGAGGAUUGAGCAUCA
Oligonucleotide,bound/input enrichment [ratio]
GCAGGAUCUUCUAAGUACCAGUGGGACAUUAUGAAAUCCCUUGGGCUCUCUGAUGACGAGAUAGUAAAAUUUUCUGAAGCAGAGCACUGGCUUGAUUAUUUCCCACCACUGGCCGUUCAG,0.368
GAAUCCUACUCAGGCGGAUUUUGCAACACCAAGCUCAAGUAGCAAUUAUCUUAGUCACAGUUAGGUAGUUUUGGGGCUCUGUGGCCAGGGUUUUAUUCACAUGCAGGUUUGGAAAAUGUA,2.08
CACAGAGCAGCACCUACCCCCUCCUCCUUUCCACACCUGCAAACUCUUUUACUUGGGCUGCAUAGUUAGUGUAAUUACAUCUCAGCUUUGAGGGCUCCUGUGGCAAAAUACCCGGAUAAA,2.7
GAUCAUGAACCACCAUCAGAAAUGAAGAUGAGAUUACCCAGACGAGCCAAAACAGCUGCGCUACAGAAAAAGUAAACUAACCUUGCAGAGUUCCUUAAUGAAGAUACAAGUUAAGAGAGC,0.317
CUCAGAGAUGUGGCAUAUCAGUAUGUGAAAAAGGGGGCUCGUAUAUUUUUGGAAGGGAAAGUGGACUAUGGCGAGUACAUGGAUAAAAACAAUGUGAGGCGACAAGCAACAACAAUCAUA,0.353
CACAGAGCAGCACCUACCCCCUCCUCCUUUCCACACCUGCAAACCCUUUUACUUGGGCUGAAUAUUUAGUGUUAAUUCAUCUCAGCUUUGAGGGCUCCUGUGGCAAAUUCCCGGAUUAAA,0.669
GAUAGGAAAAACUUGUUGGAGACCCGCUUGCAUGUCACUGGUAGAGACCUGAGGUGUCAAAUAGCUGAAACUUUCGGAUUUCAAGAAAAUUACAUCAAGAUCGUAAUAAAUAAGAAACAG,0.643
GAUAAGAAAAGCUUGUUGGAGACCCGCUUGCAUGUCACUGGUAGAGACCUGAGGUGUCAAAUAGCUGAAACUUUCGGAUUUCAAGAAAAUUACAUCAAAAUUGUCAUAAAUAAGAAACAG,0.333

# Study 4
# Target: Histone acetyltransferase KAT6A, winged helix 1, GST fusion (KAT6A, Homo sapiens, UniProt Q92794, residues 1-85)
# Method: protein binding microarray
# Molecule type: double-stranded DNA, one strand shown
# Medium: in vitro
# Tested at: not given
# Setting: 8-mer, flanks averaged, mean of 2 arrays, mostly near background
# Relative to: not given
# Reading: higher = stronger binding
# Construct (chain): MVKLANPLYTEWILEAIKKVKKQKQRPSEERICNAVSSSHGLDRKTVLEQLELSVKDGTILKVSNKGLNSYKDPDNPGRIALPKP
Oligonucleotide,E-score
GTTTCCCA,-0.172
GAAATTGA,-0.0191
ATCGCGAA,0.16
TCAGCGGA,0.181
ACGAAACT,-0.124
AGAGAATG,-0.102
GACAATAA,-0.0709
AGTCACAT,-0.16
AGGTCCTC,-0.0707
CTAGAAAC,-0.246
GTACCAGA,-0.0782
CTGCGGAC,0.153
GAAGGCGA,0.14
ATGACGGG,0.326
CGGGGTAG,0.172
AAAATGCT,-0.228
CAATGCGA,-0.0469
AGGTGTCG,0.105
GCAAACTA,-0.243
CCGTGTCA,0.255
CCTTGGTC,-0.0732

# For quick reference, copied from above (study 3):
Oligonucleotide,bound/input enrichment [ratio]
CACAGAGCAGCACCUACCCCCUCCUCCUUUCCACACCUGCAAACUCUUUUACUUGGGCUGCAUAGUUAGUGUAAUUACAUCUCAGCUUUGAGGGCUCCUGUGGCAAAAUACCCGGAUAAA,2.7
CACAGAGCAGCACCUACCCCCUCCUCCUUUCCACACCUGCAAACCCUUUUACUUGGGCUGAAUAUUUAGUGUUAAUUCAUCUCAGCUUUGAGGGCUCCUGUGGCAAAUUCCCGGAUUAAA,0.669
GAUAAGAAAAGCUUGUUGGAGACCCGCUUGCAUGUCACUGGUAGAGACCUGAGGUGUCAAAUAGCUGAAACUUUCGGAUUUCAAGAAAAUUACAUCAAAAUUGUCAUAAAUAAGAAACAG,0.333
CUCAGAGAUGUGGCAUAUCAGUAUGUGAAAAAGGGGGCUCGUAUAUUUUUGGAAGGGAAAGUGGACUAUGGCGAGUACAUGGAUAAAAACAAUGUGAGGCGACAAGCAACAACAAUCAUA,0.353
GAAUCCUACUCAGGCGGAUUUUGCAACACCAAGCUCAAGUAGCAAUUAUCUUAGUCACAGUUAGGUAGUUUUGGGGCUCUGUGGCCAGGGUUUUAUUCACAUGCAGGUUUGGAAAAUGUA,2.08
GCAGGAUCUUCUAAGUACCAGUGGGACAUUAUGAAAUCCCUUGGGCUCUCUGAUGACGAGAUAGUAAAAUUUUCUGAAGCAGAGCACUGGCUUGAUUAUUUCCCACCACUGGCCGUUCAG,0.368
GAUAGGAAAAACUUGUUGGAGACCCGCUUGCAUGUCACUGGUAGAGACCUGAGGUGUCAAAUAGCUGAAACUUUCGGAUUUCAAGAAAAUUACAUCAAGAUCGUAAUAAAUAAGAAACAG,0.643
GAUCAUGAACCACCAUCAGAAAUGAAGAUGAGAUUACCCAGACGAGCCAAAACAGCUGCGCUACAGAAAAAGUAAACUAACCUUGCAGAGUUCCUUAAUGAAGAUACAAGUUAAGAGAGC,0.317
